Experimental data pooled from the literature.
Each line is one published result; not all experiments were run side by side. ± gives the spread as reported.
B1: colicin E1 fragment 1–120; chain METAVAYYKDGVPYDDKGQVIITLLNGTPDGSGSGGGGGKGGSKSESSAAIHATAKWSTAQLKKTQAEQAARAKAAAEAQAKAKANRDALTQRLKDIVNEALRHNASRTPSATELAHANN

| Molecule | test | system | conditions | measurement | result |
| --- | --- | --- | --- | --- | --- |
| melittin | membrane partitioning, ITC enthalpy vs temperature | POPC/POPG LUVs 75:25% | concentration not given, 25 to 60 °C | heat capacity change | -0.56 kcal/mol/K |
| CN[C@@](C)(C[18F])C(=O)O |  | SCID mouse U87 xenograft, kidney | 15 min, post injection | tissue uptake | 27 ± 4.8 %ID/g |
| COc1cccc2c1C(=O)c1c(O)c3c(c(O)c1C2=O)C[C@@](O)(C(=O)CO)C[C@@H]3O[C@H]1C[C@H](NC(=O)[C@@H]2CCCN2C(=O)CNC(=O)[C@H](CC(C)C)NC(=O)[C@H](C)NC(=O)CP(=O)(O)O)[C@H](O)[C@H](C)O1 |  | mouse, E0771 tumour-bearing, heart | intravenous, 92 µmol/kg | Tmax | 5 min |
| N=C(N)NCCC[C@@H]1NC(=O)[C@H](CCCCNC(=O)[C@H](CC(=O)O)NC(=O)[C@H](CC(=O)O)NC(=O)[C@H](CC(=O)O)NC(=O)CC[C@H](NC(=O)CCOCCOCCOCCOCCNC(=O)c2ccc(NN)nc2)C(=O)N[C@@H](CC(=O)O)C(=O)N[C@@H](CC(=O)O)C(=O)N[C@@H](CC(=O)O)C(=O)NCCCC[C@@H]2NC(=O)[C@@H](Cc3ccccc3)NC(=O)[C@H](CC(=O)O)NC(=O)CNC(=O)[C@H](CCCNC(=N)N)NC2=O)NC(=O)[C@@H](Cc2ccccc2)NC(=O)[C@H](CC(=O)O)NC(=O)CNC1=O [technetium-99m labelled] | γ-counting | female athymic nude mice, U-87 MG xenograft, kidneys | intravenous, 0.5 h | tissue uptake | 24.7 ± 2.4 %ID/g |
| CC(C)C[C@@H]1NC(=O)[C@@H]2CSSC[C@@H](C(=O)NCC(N)=O)NC(=O)[C@H](Cc3ccccc3)NC(=O)CNC(=O)[C@H](CC(N)=O)NC(=O)[C@@H]3CCCN3C(=O)CNC(=O)[C@@H]3CSSC[C@H](NC(=O)[C@H]([C@@H](C)O)NC(=O)[C@H](CC(C)C)NC(=O)[C@@H]4CCCN4C(=O)[C@@H]4CCCN4C(=O)[C@H](CC(N)=O)NC(=O)[C@H](CC(=O)O)NC(=O)CNC(=O)[C@H](CCCNC(=N)N)NC(=O)[C@@H]4CCCN4C(=O)[C@H](CCCNC(=N)N)NC(=O)[C@@H]4CCCN4C(=O)[C@@H](NC(=O)CNC(=O)CN4CCN(CC(=O)O)CCN(CC(=O)O)CCN(CC(=O)O)CC4)CSSC[C@H](NC(=O)CNC(=O)[C@H](C)NC1=O)C(=O)N[C@@H](C(C)C)C(=O)N3)C(=O)N[C@@H](CO)C(=O)N[C@@H](CCC(N)=O)C(=O)N[C@@H](CC(=O)O)C(=O)N[C@@H](CO)C(=O)N[C@@H](CC(=O)O)C(=O)N2 [copper-64 labelled] | PET | mouse, transgenic lung tumour model, lung tumour | intravenous, 60 min | tumour uptake | 2.36 %ID/g |
| Cc1ccccc1NC(=O)Nc1ccc(CC(=O)N[C@@H](CCCCNC(=O)/C=C/c2cccnc2)C(=O)N[C@@H](CCCC(=O)O)C(=O)NC2(C(=O)NCCOCCOCCOCCOCC(=O)N[C@@H](CCCCNC(=S)Nc3ccc(C[C@H]4CN(CC(=O)O)CCN(CC(=O)O)CCN4CC(=O)O)cc3)C(N)=O)CCCCC2)cc1 [fluorine-18 labelled] |  | female C57BL/6 mice, B16-F10 tumour, colon | intravenous, 2 h | tissue uptake | 2.8 ± 0.2 %ID/g |
| COc1cccc2c1C(=O)c1c(O)c3c(c(O)c1C2=O)C[C@@](O)(C(=O)CO)C[C@@H]3O[C@H]1C[C@H](NC(=O)[C@H](CC(C)C)NC(=O)[C@H](C)NC(=O)[C@H](CC(C)C)NC(=O)CCNC(=O)CCC(=O)O)[C@H](O)[C@H](C)O1 |  | mouse, E0771 tumour-bearing, tumor | intravenous, 92 µmol/kg | AUC | 25.6 µM·h |
| CC(=O)N(O)CCCCCNC(=O)CCC(=O)N(O)CCCCCNC(=O)CCC(=O)N(O)CCCCCNC(=S)Nc1ccc(NC(=S)NCCOCCOCCOCCOCCC(=O)N[C@@H](CCC(=O)NCCOCCOCCOCCOCCC(=O)NCCCC[C@@H]2NC(=O)[C@@H](Cc3ccccc3)NC(=O)[C@H](CC(=O)O)NC(=O)CNC(=O)[C@H](CCCNC(=N)N)NC2=O)C(=O)NCCOCCOCCOCCOCCC(=O)NCCCC[C@@H]2NC(=O)[C@@H](Cc3ccccc3)NC(=O)[C@H](CC(=O)O)NC(=O)CNC(=O)[C@H](CCCNC(=N)N)NC2=O)cc1 [zirconium-89 labelled] |  | athymic nude mice female tumour-bearing, blood | intravenous, 100 µCi, 4 h | tissue uptake | ~0.67 %ID/g |
| N=C(N)NCCC[C@@H]1NC(=O)[C@H](CCCCNC(=S)Nc2ccc(C[C@H]3CN(CC(=O)O)CCN(CC(=O)O)CCN3CC(=O)O)cc2)NC(=O)[C@@H](Cc2ccc(O)cc2)NC(=O)[C@H](CC(=O)O)NC(=O)CNC1=O [gallium-68 labelled] | PET | SCID mouse, PC-3 tumour | 25 to 30 min p.i. | tumour uptake | 3.24 ± 0.41 %ID/g |
| N=C(N)NCCC[C@@H]1NC(=O)[C@H](CCCCNC(=O)CNC(=O)CNC(=O)CNC(=O)CC[C@H](NC(=O)CCOCCOCCOCCOCCNC(=O)c2ccc(NN)nc2)C(=O)NCC(=O)NCC(=O)NCC(=O)NCCCC[C@@H]2NC(=O)[C@@H](Cc3ccccc3)NC(=O)[C@H](CC(=O)O)NC(=O)CNC(=O)[C@H](CCCNC(=N)N)NC2=O)NC(=O)[C@@H](Cc2ccccc2)NC(=O)[C@H](CC(=O)O)NC(=O)CNC1=O [technetium-99m labelled] | γ-counting | female athymic nude mice, U-87 MG xenograft, blood | intravenous, 1 h | tissue uptake | 0.56 ± 0.13 %ID/g |
| CCN1C(=CC=CC=CC2=[N+](CCCCCC(=O)NCCCC[C@H](NC(=O)CN3CCN(CC(=O)O)CCN(CC(=O)O)CCN(CC(=O)O)CC3)C(=O)NCC(=O)NCC(=O)N[C@@H](Cc3ccc(O)cc3)C(=O)NCC(=O)N[C@H]3CSSC[C@@H]4NC(=O)CNC(=O)[C@H](C)NC(=O)[C@H](CC(C)C)NC(=O)[C@@H]5CSSC[C@@H](C(=O)NCC(N)=O)NC(=O)[C@H](Cc6ccccc6)NC(=O)CNC(=O)[C@H](CC(N)=O)NC(=O)[C@@H]6CCCN6C(=O)CNC(=O)[C@H](CSSC[C@H](NC(=O)[C@H](CO)NC(=O)[C@H]([C@@H](C)O)NC(=O)[C@@H]6CCCN6C(=O)[C@H](C)NC(=O)[C@H](Cc6c[nH]c7ccccc67)NC(=O)[C@H](CC(=O)O)NC(=O)CNC(=O)[C@H](CCCNC(=N)N)NC(=O)CNC(=O)[C@H](CCC(N)=O)NC(=O)[C@@H]6CCCN6C3=O)C(=O)N[C@@H](CO)C(=O)N[C@@H](CCC(N)=O)C(=O)N[C@@H](CC(=O)O)C(=O)N[C@@H](CO)C(=O)N[C@@H](CC(=O)O)C(=O)N5)NC(=O)[C@H](C(C)C)NC4=O)c3ccc4c(S(=O)(=O)[O-])cc(S(=O)(=O)O)cc4c3C2(C)C)C(C)(C)c2c1ccc1c(S(=O)(=O)O)cc(S(=O)(=O)O)cc21 (single isomer, unassigned) [copper-64 labelled] | microPET | female athymic nude mouse, U-87 MG xenograft, tumour | intravenous, 100 µCi, 24 h | tumour uptake | 5.02 ± 0.05 %ID/g |
| B1 (colicin E1 fragment 1–120) | far-UV CD | peptide, 50 mM sodium phosphate |  | helical content | 33 ± 8% |
| CCc1c2c(nc3ccc(OC(=O)[C@H]4CC[C@H](CNC(=O)[C@H]5CC[C@H](CN6C(=O)CC(SC[C@H](N)C(=O)N[C@H](C(=O)N[C@@H](CCCCN)C(=O)N[C@@H](CCCNC(=N)N)C(=O)NCC(=O)N[C@@H](CC(C)C)C(=O)N[C@@H](CCCCN)C(=O)N[C@@H](CC(C)C)C(=O)N[C@@H](CCCNC(=N)N)C(=O)N[C@@H](Cc7c[nH]cn7)C(=O)N[C@H](C(=O)N[C@@H](CCCNC(=N)N)C(=O)N7CCC[C@H]7C(=O)N[C@@H](CCCNC(=N)N)C(=O)N[C@H](C(=O)N[C@H](C(=O)N[C@@H](CCCNC(=N)N)C(=O)N[C@@H](CCSC)C(=O)N[C@@H](CC(=O)O)C(=O)N[C@H](C(=O)O)C(C)C)[C@@H](C)O)C(C)C)C(C)C)C(C)C)C6=O)CC5)CC4)cc13)-c1cc3c(c(=O)n1C2)COC(=O)[C@]3(O)CC (stereo partly shown) |  | human, cancer patients | phase I trial | dose with infusion reactions | > 75 mg/m² |
